Assay results of several laboratories.
A part holds a random share of what one study measured.

Study 1 — method: protein binding microarray; molecule type: double-stranded DNA, one strand shown; medium: in vitro; concentration: not given; relative to: not given; direction: higher = stronger binding
Target: Histone acetyltransferase KAT6A, winged helix 2, GST fusion (KAT6A, Homo sapiens, UniProt Q92794, residues 85-181)
Setting: 8-mer, flanks averaged, mean of 2 arrays, mostly near background
Residues (chain): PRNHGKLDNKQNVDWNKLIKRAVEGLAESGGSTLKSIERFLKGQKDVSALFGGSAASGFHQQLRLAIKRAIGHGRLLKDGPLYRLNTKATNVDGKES
Oligonucleotide | E-score
AAAGCGCT | 0.274
GTCCCAAC | 0.0149
CCTTTGGC | -0.000225
GGTAGACA | -0.0762

Study 2 — method: RNA Bind-n-Seq; molecule type: RNA; medium: in vitro; concentration: not given; relative to: input RNA pool; direction: higher = stronger binding
Target: RING finger protein unkempt homolog, zinc fingers 1-6, GST-SBP tag (UNK, Homo sapiens, UniProt Q9C0B0, residues 30-357)
UniProt Q9C0B0, sequence (30-357, looked up): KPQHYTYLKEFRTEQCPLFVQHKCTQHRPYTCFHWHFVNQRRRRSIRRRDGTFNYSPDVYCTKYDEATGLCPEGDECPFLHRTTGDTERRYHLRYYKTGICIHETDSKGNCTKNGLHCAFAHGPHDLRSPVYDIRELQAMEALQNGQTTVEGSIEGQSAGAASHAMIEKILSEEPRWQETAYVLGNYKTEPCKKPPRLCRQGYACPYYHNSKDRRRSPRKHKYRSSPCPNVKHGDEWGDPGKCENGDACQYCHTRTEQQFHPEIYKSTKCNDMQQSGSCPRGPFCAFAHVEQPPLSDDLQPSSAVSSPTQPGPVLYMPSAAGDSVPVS
Setting: RNA with constant flanks, human and mouse sites, ends assumed
Oligonucleotide | bound/input enrichment
GGGAGUUCUACAGUCCGACGAUCCAGUGUUUGAGCAACACACCUCCACUUACUGAAUAUUUCCUCAAUGAUAAGUACCAAGAAGAGCUGAAUUUUGACAAUCCCUUAGGAAUGAGAGGUGAAAUAGCUAAAUCAUACGCUGAACAACAGAGGAUUGAGCAUCA | 0.434 ratio
GGGAGUUCUACAGUCCGACGAUCGACCACGAUGAGUGUGCCGCACUUCCGGCCAGAUCGCCGGAUUUCCGCUGAGUGACCCUUACAAGUCCUUCUUGAUCCUGAACUGGGUUAGGUGCCGCUGUUGCUGCUCGUGUUGAAUCUCAACAGAGGAUUGAGCAUCA | 0.109 ratio
GGGAGUUCUACAGUCCGACGAUCACGCUAUAUGCCCAUUUUGAACAAGCCAAUAUAAAAACACAAUUGCAGCAACUUGGUGUAACCCUUUCUAUGACUAGAACAGAACUUUCUCCUGCACAGAUCAAACAGCUUUUACAGAAUCAACAGAGGAUUGAGCAUCA | 0.276 ratio
GGGAGUUCUACAGUCCGACGAUCGAAUUUGGGCAGGUUUUGGCUUCCUGUUCUUUUGACCGAACAGCUGCUGUAUGGGAAGAAAUAGUAGGAGAAUCAAAUGAUAAACUGCGAGGACAGAGCCACUGGGUUAAAAGGACAACUCAACAGAGGAUUGAGCAUCA | 0.588 ratio

Study 3 — method: protein-binding microarray; molecule type: double-stranded DNA, one strand shown; medium: in vitro; concentration: 940 nM top; setting: 60-bp whole probe; together with: salmon DNA 0.4 mg/ml; relative to: random background probes; direction: higher = stronger binding; shared flanks, not repeated: GCCTAGCAC … GTCTTGATTCGCTTGACGCTGCTG
Target: Interferon regulatory factor 5, full length, phosphomimetic (IRF5, Homo sapiens, UniProt Q13568-2, residues 1-514, S451D/S453D/S456D/S462D)
Oligonucleotide | fitted relative affinity
TTAGGTTTCCTTTCCCGTTAGTGCTAG | 2.18 z-score
TTAGGTCTCCTTCTCCTTTAGTGCTAG | 0.39 z-score
GACGAGATCGGGTTTCGAGACGTGCTA | 2.39 z-score
TCATCTCTGGGTCGGGCACTGTGCTAG | 0.199 z-score
GACAATATCGGGTTTCGAGACGTGCTA | 1.74 z-score

Single results of other studies
Substance | target | test | system | conditions | scale | endpoint | result
PhoQ, residues 284 288 289 292 302 303 HSSMNL | PhoP, residues 12 14 15 18 19 AQALL (Escherichia coli, UniProt P23836) | Sort-seq, item: YFP reporter | E. coli | PhoQ-PhoP variant library, together with: 10 µM Mg2+ | relative to: high Mg2+ state, higher = stronger signaling | fold induction | 2.13

Some of these lines once more (study 3):
Oligonucleotide | fitted relative affinity
TTAGGTCTCCTTCTCCTTTAGTGCTAG | 0.39 z-score
GACGAGATCGGGTTTCGAGACGTGCTA | 2.39 z-score
